Measurements collected from several papers.
± gives the spread as reported.

For CC(C)C[C@H](NC(=O)[C@H](CO)NC(=O)[C@H](Cc1c[nH]c2ccccc12)NC(=O)[C@H](Cc1ccccc1)NC(=O)[C@H](Cc1ccccc1)NC(=O)[C@H](CCC(N)=O)NC(=O)[C@@H]1CCCN1C(=O)[C@H](CCCNC(=N)N)NC(=O)[C@H](CCCNC(=N)N)NC(=O)[C@H](CCCNC(=N)N)NC(=O)[C@H](CCC(N)=O)NC(=O)[C@H](CCCNC(=N)N)NC(=O)[C@H](CCCNC(=N)N)NC(=O)[C@H](CCCCN)NC(=O)[C@H](CCCCN)NC(=O)[C@H](CCCNC(=N)N)NC(=O)CNC(=O)[C@@H](N)Cc1ccc(O)cc1)C(=O)N[C@@H](CS)C(=O)N[C@H](C(=O)N[C@@H](C)C(=O)O)[C@@H](C)O, the viable cells was 11% (Jurkat; trypan blue exclusion; 7.5 µM, 17 h, added: zVAD-fmk 50 µM 30 min pretreatment).
CCCCCCCCCCCCCC(=O)NCC(=O)N[C@@H](CCCNC(=N)N)C(=O)N[C@@H](Cc1c[nH]c2ccccc12)C(=O)N[C@@H](CCCCN)C(=O)N[C@H](C(=O)N[C@@H](Cc1ccccc1)C(=O)N[C@@H](CCCCN)C(=O)N[C@@H](CCCCN)C(=O)N[C@H](C(=O)N[C@@H](CCC(=O)O)C(=O)N[C@@H](CCCCN)C(=O)N[C@H](C(=O)NCC(=O)N[C@@H](CCC(N)=O)C(=O)N[C@@H](CC(N)=O)C(=O)N[C@H](C(=O)N[C@@H](CCCNC(=N)N)C(=O)N[C@@H](CC(=O)O)C(=O)NCC(=O)N[C@H](C(=O)N[C@H](C(=O)N[C@@H](CCCCN)C(=O)N[C@@H](C)C(=O)NCC(=O)N1CCC[C@H]1C(=O)N[C@@H](C)C(=O)N[C@H](C(=O)N[C@@H](C)C(=O)N[C@H](C(=O)N[C@H](C(=O)NCC(=O)N[C@@H](CCC(N)=O)C(=O)N[C@@H](C)C(=O)N[C@@H](C)C(=O)N[C@H](C(=O)N[C@H](C(N)=O)[C@@H](C)CC)[C@@H](C)O)C(C)C)C(C)C)C(C)C)C(C)C)[C@@H](C)CC)[C@@H](C)CC)C(C)C)[C@@H](C)CC)[C@@H](C)CC — result for “cleaved over total caspase ratio”: “increased” (Jurkat; western blot, measured: caspase 9; 3 or 6 µM, 16 h).
With COC(=O)C1=CO[C@@H](O)[C@@H]2C(Cn3cc(C4(O)CCCC4)nn3)=CC[C@H]12 the viability was 75 ± 2.5% (SK-N-SH; neuroprotection, MTT; 0.075 µM, 24 h, added: 250 µM H2O2).
For CC/C=C\C/C=C\C/C=C\C/C=C\C/C=C\C/C=C\CCC(=O)Nc1ccn(C2OC(CO)C(O)C2(F)F)c(=O)n1 (centres unmarked), the CC50 was 43 µM (UACC-62; NCI60 screen).
For Cc1cc(C)c(-n2ccn(-c3c(C)cc(C)cc3C)c2=[Se])c(C)c1.[Cl][Ag], the resistance factor was 0.3 (LoVo-OXP colon cancer cells; MTT; baseline: LoVo-OXP over LoVo IC50).
For CN1C(=O)C2(Cc3ccc(CC45SSC(CO)(C(=O)N4C)N(C)C5=O)cc3)SSC1(CO)C(=O)N2C (racemic), “VEGF protein level decrease” read about 40% (MCF7; western blot; 200 nM, added: deferoxamine 300 µM).
COC(=O)C1=CO[C@@H](OC(C)=O)[C@@H]2C(Cn3cc(CCCO)nn3)=CC[C@H]12 gave a viability of 66.6 ± 0.1% (SK-N-SH; neuroprotection, MTT; 0.3 µM, 24 h, added: 250 µM H2O2).
The GI50 of CCCc1cc(OC)c(OC)c(OC)c1OC is reported as over 250 µM (SK-OV-3; cell growth or viability, MTT; 72 h).
CCOC(=O)c1ccc(NC(=S)Nc2ccc3c(c2)C(C)(C)CC(C)(C)S3)cc1 — result for “maximum growth inhibition”: 54.1 ± 13.7% (786-O; MTS; range over 1 to 12.5 µM, 48 h).
CCCCCCCCC1(CCCCCCCC)c2cc(-c3cc4[n+]5c(c3)-c3cccc[n+]3[Ir-3]536([c]5c(c(C)cc(C)c5-c5cccc[n+]53)-c3cccc[n+]36)[n+]3ccccc3-4)ccc2-c2ccc(-c3cc4[n+]5c(c3)-c3cccc[n+]3[Ir-3]536([c]5c(c(C)cc(C)c5-c5cccc[n+]53)-c3cccc[n+]36)[n+]3ccccc3-4)cc21.F[P-](F)(F)(F)(F)F.F[P-](F)(F)(F)(F)F.F[P-](F)(F)(F)(F)F.F[P-](F)(F)(F)(F)F gave an EC50 of 49.5 ± 0.1 µM (SK-MEL-28; cell viability, resazurin; 16 h before light, red light 100 J/cm2).
CCCCCCCCCCOCc1cn(CC2=CC[C@@H]3C(C(=O)OC)=CO[C@@H](O)[C@H]23)nn1 gave a viability of 61.2 ± 0.8% (SK-N-SH; neuroprotection, MTT; 0.6 µM, 24 h, added: 250 µM H2O2).
With CC[C@H](C)[C@@H]1NC(=O)[C@H](Cc2cn(CCc3c(C)[nH]c4cc(Cl)cc(Cl)c34)nn2)NC(=O)[C@@H](CC(N)=O)NC(=O)[C@H](CCCNC(=N)N)NC(=O)[C@H](Cc2ccccc2)NC(=O)[C@@H](CC(C)C)NC(=O)[C@H](C)NC(=O)c2cc3cc(c2)C(=O)NC[C@@H](C(=O)N[C@@H](CCCCN)C(N)=O)NC(=O)[C@H](CCCNC(=N)N)NC(=O)[C@H](CCCNC(=N)N)NC(=O)[C@H](CCCNC(=N)N)NC(=O)[C@H](CCCNC(=N)N)NC(=O)[C@H](Cc2ccc4ccccc4c2)NC(=O)[C@H](Cc2ccccc2)NC(=O)[C@H](CCCCNC3=O)NC(=O)[C@H](CC(=O)O)NC1=O the dead cells was 54% (H1299; annexin V/propidium iodide flow cytometry; 10 µM, 24 h).
[Cl][Au].[Se]=c1n(C2CCCCC2)ccn1C1CCCCC1 gave a resistance factor of 1.4 (LoVo MDR; MTT; baseline: LoVo MDR over LoVo).
For N=C(N)Nc1ccc(-c2nc3ccc(-c4ccc5nc(-c6ccc(NC(=N)N)cc6)[nH]c5c4)cc3[nH]2)cc1, “lowest effective concentration” read 1 µM (sample A patient myotubes; measured: MBNL1 exon 5 splicing; significant improvement).
With COC(=O)C1=CO[C@@H](O)[C@@H]2C(Cn3cc(-c4ccc(F)cc4)nn3)=CC[C@H]12 the viability was 55.9 ± 1.1% (SK-N-SH; neuroprotection, MTT; 0.3 µM, 24 h, added: 250 µM H2O2).
With COc1ccc2cc(Nc3c4c(nc5ccccc35)CCCC4)ccc2c1 the viability was 31.6 ± 4.02% (SH-SY5Y; MTT; 50 µM, 1 h pretreatment, 10% FBS, added: H2O2).
With COC(=O)C1=CO[C@@H](OC(C)=O)[C@@H]2C(Cn3cc(CN(C)Cc4ccccc4)nn3)=CC[C@H]12 the viability was 52.9 ± 0.5% (SK-N-SH; neuroprotection, MTT; 0.3 µM, 24 h, added: 250 µM H2O2).
CC(C)[C@@H](CS(=O)(=O)C(C)C)N1C(=O)[C@@](C)(CC(=O)NCCCNC(=O)c2ccc([18F])nc2)C[C@H](c2cccc(Cl)c2)[C@H]1c1ccc(Cl)cc1 has an uptake of under 2% (SJSA-1).
With COc1ccnc(Nc2c3c(nc4ccc(Cl)cc24)CCCC3)c1 the viability was 39.1 ± 1.43% (SH-SY5Y; MTT; 50 µM, 1 h pretreatment, 10% FBS, added: H2O2).
COc1ccc(CNc2c(NC3CCN(Cc4ccccc4)CC3)c(=O)c2=O)cc1OC has a cell survival of 55.7% (SH-SY5Y; neuroprotection, MTT; 12.5 µM, 24 h pretreatment, added: H2O2 650 µM for 4 h).
O=C(CN1CCN(c2cc3c(cc2F)c(=O)c(C(=O)O)cn3C2CC2)CC1)Nc1ccc(Cl)cc1: intracellular accumulation “no effect” (LLC-PK1 wild type; inhibitor, measured: Oregon Green paclitaxel; 4 µM, added: Oregon Green paclitaxel 400 nM).
The GI50 of COc1cc(C)cc2c1OCO2 is reported as over 250 µM (SK-OV-3; cell growth or viability, MTT; 72 h).
Under “fold reversal of IC50”, CC=C(C)C(=O)OC1C2C3(C)CCC(OC4CC(OC)C(OC5OC(C)C(O)C(OC)C5O)C(C)O4)CC3CCC23OC32CCC(C(C)=O)C2(C)C1OC(C)=O (centres unmarked) is recorded as 4 (MDA435/LCC6-MDR1; cell growth, MDR reversal, SRB; 10 µM, added: paclitaxel; baseline: paclitaxel alone over combination).
For COC(=O)C1=CO[C@@H](OC(C)=O)[C@@H]2C(Cn3cc(CCCCN4C(=O)c5ccccc5C4=O)nn3)=CC[C@H]12, the viability was 50.7 ± 0.5% (SK-N-SH; neuroprotection, MTT; 0.075 µM, 24 h, added: 250 µM H2O2).
For CC1(C)C(=O)[O][Pt][O]C1=O.N[C@@H]1CCCC[C@H]1N, IC50 change read “no effect” (DU-145 GLUT1 shRNA knockdown; cell viability, MTT; 7.5 h plus 64 h recovery; baseline: parental DU-145).
With CCCCCCCCCCOCc1cn(CC2=CC[C@@H]3C(C(=O)OC)=CO[C@@H](OC(C)=O)[C@H]23)nn1 the viability was 61.2 ± 0.8% (SK-N-SH; neuroprotection, MTT; 0.6 µM, 24 h, added: 250 µM H2O2).
For CC(C)CC(O)(CC(C)C)c1cn(C(=O)N2CCCC2)nn1, the protein level was 1.05 ± 0.11 (mouse T-cells; SILAC proteomics, measured: SERF2; 1 nM, 6 h, unit not given; baseline: DMSO).
CC(ON(C(C)(C)C)C(C)(C)C)c1ccc(NC(=O)[C@@H](NC(=O)[C@@H]2CCCN2C(=O)[C@H](C)NC(=O)[C@H](C)NC(=O)CCC(=O)O)C(C)C)cc1 (some centres unmarked) has an LC50 of about 150 µM (U87; cell viability, PrestoBlue; 48 h, added: HNE 0.68 µM).
The viability of COC(=O)C1=CO[C@@H](O)[C@@H]2C(Cn3cc(CON4C(=O)c5ccccc5C4=O)nn3)=CC[C@H]12 is reported as 52 ± 1.8% (SK-N-SH; neuroprotection, MTT; 0.075 µM, 24 h, added: 250 µM H2O2).

For quick reference, copied from above:
For CC(C)CC(O)(CC(C)C)c1cn(C(=O)N2CCCC2)nn1, the protein level was 1.05 ± 0.11 (mouse T-cells; SILAC proteomics, measured: SERF2; 1 nM, 6 h, unit not given; baseline: DMSO).
O=C(CN1CCN(c2cc3c(cc2F)c(=O)c(C(=O)O)cn3C2CC2)CC1)Nc1ccc(Cl)cc1: intracellular accumulation “no effect” (LLC-PK1 wild type; inhibitor, measured: Oregon Green paclitaxel; 4 µM, added: Oregon Green paclitaxel 400 nM).
